{"data": "Published values gathered from unrelated publications", "note": "Each numbered part is a random draw from the data of one study; scales do not carry over between parts. Changes are numbered by the printed parent chain."}
{"data": "Study 1", "target": "Sal-like protein 4, full length isoform B (SALL4, Homo sapiens, UniProt Q9UJQ4-2, residues 1-616)", "technique": "universal PBM", "form": "double-stranded DNA, one strand shown", "medium": "in vitro", "concentration": "not given", "setting": "8-mer, flanks averaged, mean of replicates", "reading": "higher = stronger binding"}
{"Oligonucleotide": "GGATCCTA", "E-score": -0.0903}
{"Oligonucleotide": "CGTCGCGA", "E-score": -0.24}
{"Oligonucleotide": "AGAGTCAA", "E-score": 0.0442}
{"Oligonucleotide": "CTCATCTC", "E-score": -0.0353}
{"Oligonucleotide": "CACCAATC", "E-score": -0.0588}
{"Oligonucleotide": "CTGCAAAA", "E-score": 0.158}
{"Oligonucleotide": "CGAAGGGC", "E-score": -0.256}
{"Oligonucleotide": "GATGTTAA", "E-score": 0.0978}
{"Oligonucleotide": "CAAACGAA", "E-score": 0.126}
{"Oligonucleotide": "CGTCGCTA", "E-score": -0.134}
{"Oligonucleotide": "ACGACTCC", "E-score": -0.136}
{"Oligonucleotide": "CTGCCGAC", "E-score": -0.225}
{"Oligonucleotide": "ATCTTAAA", "E-score": 0.12}
{"Oligonucleotide": "ATTGTCAC", "E-score": 0.0826}
{"Oligonucleotide": "AGGCTTTG", "E-score": -0.262}
{"Oligonucleotide": "AGCCAAAG", "E-score": -0.0675}
{"Oligonucleotide": "TGTCTCAA", "E-score": 0.0917}
{"Oligonucleotide": "CAGATGGG", "E-score": -0.0319}
{"data": "Study 2", "target": "OGT, full length, His-tagged (human)", "technique": "phage display, sequencing", "medium": "in vitro", "concentration": "1 µg OGT", "setting": "single substitutions, 15-mer displayed peptide, unchanged parent 6.14", "relative to": "input library", "reading": "higher = stronger binding", "parent": "peptide; VAYPNSYMPKYQIST; partner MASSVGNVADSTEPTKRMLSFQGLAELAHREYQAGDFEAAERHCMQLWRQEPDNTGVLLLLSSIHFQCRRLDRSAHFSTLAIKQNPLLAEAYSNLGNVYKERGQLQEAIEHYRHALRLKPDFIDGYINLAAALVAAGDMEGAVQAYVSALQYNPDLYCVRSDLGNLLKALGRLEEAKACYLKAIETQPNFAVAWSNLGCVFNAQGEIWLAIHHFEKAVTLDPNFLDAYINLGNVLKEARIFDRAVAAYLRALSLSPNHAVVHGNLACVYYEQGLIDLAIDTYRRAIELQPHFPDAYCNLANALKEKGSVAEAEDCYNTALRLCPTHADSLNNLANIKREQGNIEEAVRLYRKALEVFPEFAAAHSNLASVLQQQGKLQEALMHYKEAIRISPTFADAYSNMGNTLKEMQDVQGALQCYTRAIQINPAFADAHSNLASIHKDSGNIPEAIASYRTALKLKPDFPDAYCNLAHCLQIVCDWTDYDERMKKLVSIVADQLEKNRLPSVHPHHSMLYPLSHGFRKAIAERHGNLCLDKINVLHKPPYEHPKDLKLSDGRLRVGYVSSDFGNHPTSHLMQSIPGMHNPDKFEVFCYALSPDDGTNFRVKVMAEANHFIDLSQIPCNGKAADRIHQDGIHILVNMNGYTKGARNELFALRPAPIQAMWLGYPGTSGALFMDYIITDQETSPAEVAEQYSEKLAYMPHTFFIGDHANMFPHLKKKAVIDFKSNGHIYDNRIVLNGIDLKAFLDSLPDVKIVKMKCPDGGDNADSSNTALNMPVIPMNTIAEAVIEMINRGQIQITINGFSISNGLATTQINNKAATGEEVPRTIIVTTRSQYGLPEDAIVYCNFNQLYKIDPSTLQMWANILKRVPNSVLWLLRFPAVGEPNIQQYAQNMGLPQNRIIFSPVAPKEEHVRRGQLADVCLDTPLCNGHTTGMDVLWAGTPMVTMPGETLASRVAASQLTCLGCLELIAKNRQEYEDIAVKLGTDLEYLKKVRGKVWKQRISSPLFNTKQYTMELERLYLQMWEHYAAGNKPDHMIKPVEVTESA"}
{"Substitution": "VAYPNSYMPKYQIGT [S14G]", "fold enrichment": "2.76 fold"}
{"Substitution": "VAYPNSYMPKYQNST [I13N]", "fold enrichment": "0.532 fold"}
{"Substitution": "VAYPNSYMPKYQIAT [S14A]", "fold enrichment": "4.75 fold"}
{"Substitution": "VAEPNSYMPKYQIST [Y3E]", "fold enrichment": "7.01 fold"}
{"Substitution": "RAYPNSYMPKYQIST [V1R]", "fold enrichment": "4.22 fold"}
{"Substitution": "VAYPNSYMPKYQIQT [S14Q]", "fold enrichment": "12.7 fold"}
{"Substitution": "VAYPNSYMPRYQIST [K10R]", "fold enrichment": "1.55 fold"}
{"Substitution": "VADPNSYMPKYQIST [Y3D]", "fold enrichment": "4.64 fold"}
{"Substitution": "VAYPNSYMPKYQISD [T15D]", "fold enrichment": "0.567 fold"}
{"Substitution": "VAYPNSYMPKHQIST [Y11H]", "fold enrichment": "0.632 fold"}
{"Substitution": "VAYPNSYMPKYSIST [Q12S]", "fold enrichment": "0.779 fold"}
{"Substitution": "VAYPNSYMPKYQISK [T15K]", "fold enrichment": "3.46 fold"}
{"Substitution": "VAYPNSYMPKYTIST [Q12T]", "fold enrichment": "0.864 fold"}
{"Substitution": "VAYPNSYNPKYQIST [M8N]", "fold enrichment": "1.02 fold"}
{"Substitution": "VAYPNKYMPKYQIST [S6K]", "fold enrichment": "4.51 fold"}
{"Substitution": "VAYPNSYMPKYQTST [I13T]", "fold enrichment": "0.64 fold"}
{"Substitution": "VAYPPSYMPKYQIST [N5P]", "fold enrichment": "0.625 fold"}
{"Substitution": "VAYPNSYMPKYQISN [T15N]", "fold enrichment": "1.01 fold"}
{"Substitution": "VEYPNSYMPKYQIST [A2E]", "fold enrichment": "7.38 fold"}
{"Substitution": "VAYPNSYMPKYLIST [Q12L]", "fold enrichment": "1.48 fold"}
{"Substitution": "VAYQNSYMPKYQIST [P4Q]", "fold enrichment": "3.17 fold"}
{"Substitution": "VAYPNSYMPKGQIST [Y11G]", "fold enrichment": "0.0667 fold"}
{"data": "Study 3", "cell line": "yeast with cyclin B3-Cln2 chimera", "effect on": "cell growth", "action": "binder", "technique": "competitive growth deep sequencing", "form": "peptide", "concentration": "concentration not given", "setting": "peptide tiling library", "reading": "direction not given"}
{"Sequence": "IVLICAKRSLCAAFSV", "growth enrichment score": -0.625}
{"Sequence": "FREFEVEKQTAEETGL", "growth enrichment score": 1.81}
{"Sequence": "IPDRSTKPVVFSPT", "growth enrichment score": 0.369}
{"Sequence": "ESSQLTVQAEFDMSAI", "growth enrichment score": 0.185}
{"Sequence": "VLLKRLQDVVSERANH", "growth enrichment score": -0.0577}
{"Sequence": "TARRIFQEPTEPKTKA", "growth enrichment score": 0.0854}
{"Sequence": "KPITLDTTDFQESFVT", "growth enrichment score": 1.01}
{"Sequence": "PAKRRLELGE", "growth enrichment score": 0.362}
{"Sequence": "AIRKMREDRWAVIAKM", "growth enrichment score": -0.875}
{"Sequence": "DTERAHSTLDEDLERW", "growth enrichment score": 0.66}
{"data": "Study 4", "target": "Interferon regulatory factor 5, full length, phosphomimetic (IRF5, Homo sapiens, UniProt Q13568-2, residues 1-514, S451D/S453D/S456D/S462D)", "technique": "protein-binding microarray", "form": "double-stranded DNA, one strand shown", "medium": "in vitro", "concentration": "940 nM top", "setting": "60-bp whole probe", "with": "salmon DNA 0.4 mg/ml", "relative to": "random background probes", "reading": "higher = stronger binding", "all sequences stand within": "GCCTAGCAC … GTCTTGATTCGCTTGACGCTGCTG"}
{"Oligonucleotide": "TCATATATCTGAACCGCACTGTGCTAG", "fitted relative affinity [z-score]": 0.543}
{"Oligonucleotide": "TTAGATATCAGTTTCGAGTAGTGCTAG", "fitted relative affinity [z-score]": 4.22}
{"Oligonucleotide": "TCACATACGAGTTTCCATTTGTGCTAG", "fitted relative affinity [z-score]": 1.02}
{"Oligonucleotide": "TTAGGTTTCGACGCTGGGTTAGTGCTA", "fitted relative affinity [z-score]": 7.97}
{"Oligonucleotide": "GACGGTATCGACACTGGGGAGGTGCTA", "fitted relative affinity [z-score]": 3.72}
{"Oligonucleotide": "TTAGGACTGCTTCCCCTTTAGTGCTAG", "fitted relative affinity [z-score]": -0.126}
{"Oligonucleotide": "CCTTGCATGTTTTTGACAAAGTGCTAG", "fitted relative affinity [z-score]": 0.172}
{"Oligonucleotide": "TTAGGTATCGACTTACGGTTAGTGCTA", "fitted relative affinity [z-score]": 5.92}
{"Oligonucleotide": "GACGGTTTCGACTTTGGGGACGTGCTA", "fitted relative affinity [z-score]": 7.34}
{"Oligonucleotide": "TTAGGGTTCGACTTTCGGTTAGTGCTA", "fitted relative affinity [z-score]": 3}
{"Oligonucleotide": "TCACATTGCCTATTTTTCACTGTGCTA", "fitted relative affinity [z-score]": 1.08}
{"Oligonucleotide": "TTGAATCTCCCATTATATTTGTGCTAG", "fitted relative affinity [z-score]": 0.798}
{"Oligonucleotide": "GGCGAACTGAGTTTCGAGACGTGCTAG", "fitted relative affinity [z-score]": 3.86}
{"Oligonucleotide": "TTAGATATCTGGTTTCGATTAGTGCTA", "fitted relative affinity [z-score]": 7.64}
{"Oligonucleotide": "GACGATATCGACACTGGGGACGTGCTA", "fitted relative affinity [z-score]": 0.127}
{"Oligonucleotide": "AACGGTATCGGGACTGGGGACGTGCTA", "fitted relative affinity [z-score]": 3.24}
{"Oligonucleotide": "CTACTTCTGTTTTTGCTTTCGTGCTAG", "fitted relative affinity [z-score]": 2.09}
{"Oligonucleotide": "TTAGGTTTCGCCTTTCGGTTAGTGCTA", "fitted relative affinity [z-score]": 8.92}
{"Oligonucleotide": "GACGTTCTCCTTTTCCTGACGTGCTAG", "fitted relative affinity [z-score]": 1.43}
{"Oligonucleotide": "GACGGTTTCGTACTGGGGACGTGCTAG", "fitted relative affinity [z-score]": 4.92}
{"Oligonucleotide": "TCAGGTTTCGACTATCGGTTAGTGCTA", "fitted relative affinity [z-score]": 8.23}
{"Oligonucleotide": "TTGAGTTTTCCTTCATGTGCGTGCTAG", "fitted relative affinity [z-score]": 0.757}
{"Oligonucleotide": "GACGGTCTCCTTAGCCTGACGTGCTAG", "fitted relative affinity [z-score]": -0.235}
{"Oligonucleotide": "TTAGTTATCGGGTTTCGGTTAGTGCTA", "fitted relative affinity [z-score]": 6.49}
{"Oligonucleotide": "GACGGTATCGACTTTCGTGACGTGCTA", "fitted relative affinity [z-score]": 4.13}
{"note": "A few entries again (study 3):"}
{"Sequence": "IPDRSTKPVVFSPT", "growth enrichment score": 0.369}
{"Sequence": "ESSQLTVQAEFDMSAI", "growth enrichment score": 0.185}
{"Sequence": "VLLKRLQDVVSERANH", "growth enrichment score": -0.0577}
{"Sequence": "TARRIFQEPTEPKTKA", "growth enrichment score": 0.0854}
{"Sequence": "KPITLDTTDFQESFVT", "growth enrichment score": 1.01}
{"Sequence": "PAKRRLELGE", "growth enrichment score": 0.362}
{"Sequence": "AIRKMREDRWAVIAKM", "growth enrichment score": -0.875}
